{"data": "Measured values pooled from the literature", "TFRC residues 1-760": "TFRC residues 1-760 (Homo sapiens, UniProt P02786)", "Eif4e": "Eif4e fragment (Mus musculus)", "OGG1 full length assumed": "OGG1 full length assumed (Homo sapiens, UniProt O15527)", "T1": "NR1I2/RXRA (Homo sapiens); chain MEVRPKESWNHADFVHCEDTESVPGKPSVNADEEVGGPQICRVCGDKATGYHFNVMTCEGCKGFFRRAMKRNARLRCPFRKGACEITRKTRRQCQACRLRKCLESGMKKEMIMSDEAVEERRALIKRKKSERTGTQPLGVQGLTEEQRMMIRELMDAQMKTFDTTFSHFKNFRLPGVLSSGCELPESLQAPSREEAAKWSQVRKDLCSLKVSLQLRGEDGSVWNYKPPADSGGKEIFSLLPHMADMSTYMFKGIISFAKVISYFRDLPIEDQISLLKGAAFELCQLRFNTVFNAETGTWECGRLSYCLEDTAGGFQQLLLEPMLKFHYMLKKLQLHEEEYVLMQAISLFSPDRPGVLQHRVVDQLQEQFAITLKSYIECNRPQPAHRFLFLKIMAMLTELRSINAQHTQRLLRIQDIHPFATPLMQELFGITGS; chain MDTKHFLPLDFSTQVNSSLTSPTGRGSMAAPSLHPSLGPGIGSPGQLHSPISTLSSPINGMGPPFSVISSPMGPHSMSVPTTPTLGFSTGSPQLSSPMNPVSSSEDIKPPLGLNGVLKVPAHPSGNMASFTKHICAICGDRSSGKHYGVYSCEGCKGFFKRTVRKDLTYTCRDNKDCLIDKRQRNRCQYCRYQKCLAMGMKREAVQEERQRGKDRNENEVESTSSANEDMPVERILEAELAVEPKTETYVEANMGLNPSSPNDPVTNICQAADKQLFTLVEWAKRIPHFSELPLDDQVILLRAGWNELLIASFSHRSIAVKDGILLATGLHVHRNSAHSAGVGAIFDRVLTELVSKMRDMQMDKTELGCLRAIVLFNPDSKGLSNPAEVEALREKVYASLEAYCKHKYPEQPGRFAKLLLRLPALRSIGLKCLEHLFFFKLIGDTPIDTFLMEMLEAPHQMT", "note": "Compare with care: the assays were run in different laboratories. ± marks the error that the study gave.", "chain of UniProt P02786 (whole entry, looked up)": "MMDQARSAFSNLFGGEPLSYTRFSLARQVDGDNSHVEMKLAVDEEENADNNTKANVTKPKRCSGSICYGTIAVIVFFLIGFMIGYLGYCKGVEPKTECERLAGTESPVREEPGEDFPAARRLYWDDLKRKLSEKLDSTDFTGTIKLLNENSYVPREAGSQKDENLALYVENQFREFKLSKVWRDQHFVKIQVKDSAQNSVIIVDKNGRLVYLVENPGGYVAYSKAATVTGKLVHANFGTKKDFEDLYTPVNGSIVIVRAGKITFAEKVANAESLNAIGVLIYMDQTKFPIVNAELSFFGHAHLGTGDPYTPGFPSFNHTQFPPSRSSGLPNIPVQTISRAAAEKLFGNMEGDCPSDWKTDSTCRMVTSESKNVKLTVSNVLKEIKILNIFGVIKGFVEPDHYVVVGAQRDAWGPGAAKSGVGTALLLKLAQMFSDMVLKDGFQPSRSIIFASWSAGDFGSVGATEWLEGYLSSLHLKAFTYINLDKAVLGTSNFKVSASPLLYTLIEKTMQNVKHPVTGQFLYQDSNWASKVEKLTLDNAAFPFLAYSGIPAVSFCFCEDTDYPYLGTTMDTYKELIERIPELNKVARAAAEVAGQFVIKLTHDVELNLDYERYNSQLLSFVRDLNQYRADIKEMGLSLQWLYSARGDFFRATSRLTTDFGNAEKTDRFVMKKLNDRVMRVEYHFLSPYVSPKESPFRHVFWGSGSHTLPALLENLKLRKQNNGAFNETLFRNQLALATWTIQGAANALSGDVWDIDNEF", "chain of UniProt O15527 (whole entry, looked up)": "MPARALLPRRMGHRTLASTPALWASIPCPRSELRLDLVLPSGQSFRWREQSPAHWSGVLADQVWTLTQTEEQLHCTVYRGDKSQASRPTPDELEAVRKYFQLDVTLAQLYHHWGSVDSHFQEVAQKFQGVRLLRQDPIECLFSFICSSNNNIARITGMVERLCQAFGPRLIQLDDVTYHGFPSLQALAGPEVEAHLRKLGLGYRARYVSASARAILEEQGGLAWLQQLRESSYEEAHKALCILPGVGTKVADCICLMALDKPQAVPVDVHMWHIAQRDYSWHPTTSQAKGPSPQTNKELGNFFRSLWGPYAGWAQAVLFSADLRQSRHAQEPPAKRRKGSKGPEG", "chain of UniProt Q6UVK1 (whole entry, looked up)": "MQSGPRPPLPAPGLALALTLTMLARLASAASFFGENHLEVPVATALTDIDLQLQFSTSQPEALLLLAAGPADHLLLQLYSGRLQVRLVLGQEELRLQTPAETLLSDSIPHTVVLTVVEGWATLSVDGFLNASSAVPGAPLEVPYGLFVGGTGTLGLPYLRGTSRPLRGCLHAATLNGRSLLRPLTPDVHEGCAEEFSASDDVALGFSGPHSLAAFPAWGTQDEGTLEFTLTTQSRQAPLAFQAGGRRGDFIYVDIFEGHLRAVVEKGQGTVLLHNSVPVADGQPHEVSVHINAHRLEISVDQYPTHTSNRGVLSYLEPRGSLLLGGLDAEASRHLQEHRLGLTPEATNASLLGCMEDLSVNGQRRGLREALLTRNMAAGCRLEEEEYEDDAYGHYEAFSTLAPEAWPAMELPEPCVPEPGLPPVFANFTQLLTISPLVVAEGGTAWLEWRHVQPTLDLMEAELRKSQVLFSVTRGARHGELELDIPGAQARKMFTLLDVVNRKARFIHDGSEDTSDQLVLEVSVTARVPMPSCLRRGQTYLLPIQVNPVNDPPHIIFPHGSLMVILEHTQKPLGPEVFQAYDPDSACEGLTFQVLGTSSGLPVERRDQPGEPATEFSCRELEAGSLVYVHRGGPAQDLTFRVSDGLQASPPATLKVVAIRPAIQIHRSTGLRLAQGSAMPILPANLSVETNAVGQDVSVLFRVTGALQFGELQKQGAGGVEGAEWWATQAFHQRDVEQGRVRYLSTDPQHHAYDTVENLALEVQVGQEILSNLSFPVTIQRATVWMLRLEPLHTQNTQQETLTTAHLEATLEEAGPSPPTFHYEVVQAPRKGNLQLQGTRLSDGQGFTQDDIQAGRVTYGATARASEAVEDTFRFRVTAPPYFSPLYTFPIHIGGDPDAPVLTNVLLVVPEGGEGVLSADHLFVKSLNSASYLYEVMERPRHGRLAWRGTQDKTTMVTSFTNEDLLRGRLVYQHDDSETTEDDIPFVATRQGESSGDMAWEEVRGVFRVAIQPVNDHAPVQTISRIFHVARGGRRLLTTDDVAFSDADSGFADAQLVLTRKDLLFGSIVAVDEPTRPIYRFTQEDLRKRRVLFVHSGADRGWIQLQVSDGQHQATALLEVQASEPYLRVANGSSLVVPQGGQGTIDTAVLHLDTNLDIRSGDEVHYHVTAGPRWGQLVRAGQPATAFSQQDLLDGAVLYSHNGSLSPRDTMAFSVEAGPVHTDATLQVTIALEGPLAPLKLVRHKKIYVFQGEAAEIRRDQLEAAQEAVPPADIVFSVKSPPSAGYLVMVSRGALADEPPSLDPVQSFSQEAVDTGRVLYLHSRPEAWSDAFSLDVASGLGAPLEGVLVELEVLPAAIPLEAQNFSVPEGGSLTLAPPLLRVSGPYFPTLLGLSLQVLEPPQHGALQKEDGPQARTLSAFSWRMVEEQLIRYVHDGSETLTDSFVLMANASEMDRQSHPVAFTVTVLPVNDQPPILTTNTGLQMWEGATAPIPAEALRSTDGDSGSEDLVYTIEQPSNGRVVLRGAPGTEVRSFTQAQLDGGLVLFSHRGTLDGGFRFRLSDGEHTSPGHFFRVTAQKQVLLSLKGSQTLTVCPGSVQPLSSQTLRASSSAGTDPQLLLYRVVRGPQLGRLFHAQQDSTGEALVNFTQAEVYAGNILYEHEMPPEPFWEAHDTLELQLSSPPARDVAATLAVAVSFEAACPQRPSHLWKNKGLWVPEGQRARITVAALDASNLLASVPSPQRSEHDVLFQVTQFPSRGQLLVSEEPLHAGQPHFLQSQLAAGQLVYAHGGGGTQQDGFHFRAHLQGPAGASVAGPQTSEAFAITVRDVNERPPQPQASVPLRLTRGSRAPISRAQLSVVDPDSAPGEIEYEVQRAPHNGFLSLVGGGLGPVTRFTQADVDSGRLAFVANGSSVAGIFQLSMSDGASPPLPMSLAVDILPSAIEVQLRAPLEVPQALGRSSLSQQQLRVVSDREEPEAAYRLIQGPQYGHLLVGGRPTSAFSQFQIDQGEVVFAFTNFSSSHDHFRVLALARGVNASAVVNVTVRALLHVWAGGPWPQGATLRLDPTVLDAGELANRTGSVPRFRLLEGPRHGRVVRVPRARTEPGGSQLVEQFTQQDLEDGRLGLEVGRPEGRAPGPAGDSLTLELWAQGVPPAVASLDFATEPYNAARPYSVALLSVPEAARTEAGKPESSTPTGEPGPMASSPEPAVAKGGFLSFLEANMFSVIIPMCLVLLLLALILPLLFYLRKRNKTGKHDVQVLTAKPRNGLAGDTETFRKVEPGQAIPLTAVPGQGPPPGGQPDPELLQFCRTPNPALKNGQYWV", "chain of UniProt Q4VGL6 (whole entry, looked up)": "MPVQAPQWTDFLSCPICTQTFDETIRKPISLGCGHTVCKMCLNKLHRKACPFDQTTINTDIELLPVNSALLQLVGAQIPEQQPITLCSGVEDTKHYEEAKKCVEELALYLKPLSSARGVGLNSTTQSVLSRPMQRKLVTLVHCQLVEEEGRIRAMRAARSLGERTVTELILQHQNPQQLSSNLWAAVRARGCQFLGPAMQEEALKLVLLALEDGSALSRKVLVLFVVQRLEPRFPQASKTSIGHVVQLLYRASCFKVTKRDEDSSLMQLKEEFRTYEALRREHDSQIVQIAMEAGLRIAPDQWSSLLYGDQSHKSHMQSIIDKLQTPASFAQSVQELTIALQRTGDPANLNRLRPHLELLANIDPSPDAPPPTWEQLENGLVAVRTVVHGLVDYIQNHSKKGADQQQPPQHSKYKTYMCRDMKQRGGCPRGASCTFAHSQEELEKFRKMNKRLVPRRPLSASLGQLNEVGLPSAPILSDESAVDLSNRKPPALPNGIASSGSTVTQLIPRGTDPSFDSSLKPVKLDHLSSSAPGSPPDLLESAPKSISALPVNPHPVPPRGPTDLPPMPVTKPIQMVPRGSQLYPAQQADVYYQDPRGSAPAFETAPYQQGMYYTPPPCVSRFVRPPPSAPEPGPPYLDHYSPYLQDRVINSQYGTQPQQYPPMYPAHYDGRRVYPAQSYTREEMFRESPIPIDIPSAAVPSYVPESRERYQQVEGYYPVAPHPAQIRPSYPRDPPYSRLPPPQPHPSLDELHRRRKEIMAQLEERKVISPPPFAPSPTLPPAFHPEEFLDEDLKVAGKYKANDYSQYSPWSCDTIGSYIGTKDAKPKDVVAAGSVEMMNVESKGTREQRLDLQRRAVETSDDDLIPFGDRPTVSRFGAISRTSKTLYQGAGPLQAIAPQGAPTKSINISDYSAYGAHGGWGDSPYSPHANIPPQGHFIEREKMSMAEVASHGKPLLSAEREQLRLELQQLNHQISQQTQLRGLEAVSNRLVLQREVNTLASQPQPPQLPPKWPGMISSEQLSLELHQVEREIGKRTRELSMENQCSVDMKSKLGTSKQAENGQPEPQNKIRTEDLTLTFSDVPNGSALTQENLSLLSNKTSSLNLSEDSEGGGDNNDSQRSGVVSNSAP", "chain of UniProt P09914 (whole entry, looked up)": "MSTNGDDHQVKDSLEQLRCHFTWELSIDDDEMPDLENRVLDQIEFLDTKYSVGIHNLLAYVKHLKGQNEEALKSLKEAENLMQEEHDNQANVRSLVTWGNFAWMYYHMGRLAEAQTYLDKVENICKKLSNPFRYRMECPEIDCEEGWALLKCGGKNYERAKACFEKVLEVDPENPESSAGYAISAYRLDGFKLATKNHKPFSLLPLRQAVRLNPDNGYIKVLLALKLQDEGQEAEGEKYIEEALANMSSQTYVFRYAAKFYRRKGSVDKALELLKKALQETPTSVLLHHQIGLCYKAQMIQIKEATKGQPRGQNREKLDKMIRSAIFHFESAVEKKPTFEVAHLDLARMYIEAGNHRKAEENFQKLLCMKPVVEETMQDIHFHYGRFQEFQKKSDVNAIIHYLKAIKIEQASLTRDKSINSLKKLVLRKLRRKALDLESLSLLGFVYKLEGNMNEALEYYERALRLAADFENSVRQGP"}
{"Sequence": "TTACTCATAGGGTTAGGGGCTGCTGGCCAGATACTCAGATGGTAGGGTTACTATGAGCAA (ssDNA; 5' C6 spacer)", "target": "TFRC residues 1-760", "test": "flow cytometry", "test system": "PL45", "conditions": "not purified", "Kd [nM]": "< 15"}
{"Sequence": "GCAUUGGUGGUUCAGUGGUAGAAUUCUCGC (ssRNA; 2'-OMe U4; m2G6; dihydrouridine 19)", "target": "Hnrnph1 1-449 (Mus musculus, UniProt O35737)", "test": "EMSA", "Kd [nM]": 220}
{"Sequence": "CCACAAAGAGUCUACAUGUCUAGGGUCUAGACAUGUUCAGCUUUGUGG (structured RNA stem-loop with bulge)", "target": "LARP6 fragment (Homo sapiens)", "test": "EMSA", "test system": "lysate", "conditions": "Scatchard, overexpressed, not purified", "Kd [nM]": 1.4}
{"Sequence": "GAG (ssRNA; m7G 5'-5' triphosphate cap, A2)", "target": "Eif4e", "test": "fluorescence quenching titration", "Kd [nM]": "26.6 ± 0.9"}
{"Sequence": "GGGAGGGAGGGAGGGA (structured RNA; G-quadruplex)", "target": "HNRNPR 165-444 (Homo sapiens, UniProt O43390)", "test": "fluorescence polarization", "Kd [nM]": "2.2 ± 1.1"}
{"Sequence": "AAATAATCATAAAGTATTAAAGTAATATATAC (dsDNA (Arabidopsis thaliana))", "target": "DOF3.4 zinc finger (Arabidopsis thaliana, UniProt Q39088)", "test": "EMSA", "test system": "double-stranded DNA, one strand shown", "Kd [nM]": 5000}
{"Sequence": "TGAACTTGCTGACCC (dsDNA)", "target": "T1, NR1I2/RXRA (Homo sapiens)", "test": "fluorescence anisotropy", "test system": "double-stranded DNA, one strand shown", "conditions": "with: SR12813, 9-cis-retinoic acid", "Kd [nM]": "206 ± 53"}
{"Sequence": "TGACTACTACATNGTTGCCTACCAT / ATGGTAGGCAACTATGTAGTAGTCA (dsDNA; blunt, abasic THF site)", "target": "DNA alkylation repair protein full length assumed (Bacillus cereus, UniProt Q816E8)", "test": "fluorescence anisotropy", "Kd [nM]": "3100 ± 300"}
{"Sequence": "AUGCAUAGGU (ssRNA)", "target": "Fab BRG Fab", "test": "filter binding", "Kd [nM]": "29 ± 3"}
{"Sequence": "GGCCUAGCCGUGGGUUCUACCACGUCUCAAGGCU (structured RNA)", "target": "Rc3h1 171-326 (Mus musculus, UniProt Q4VGL6)", "test": "EMSA", "conditions": "with: MgCl2 1 mM", "Kd [nM]": "547 ± 15.5"}
{"Sequence": "CGATCATGGAGGCTANCGCTCCCGTTACAG / CTGTAACGGGAGCGCTAGCCTCCATGATCG (dsDNA; blunt, chloroindole analog position 16)", "target": "OGG1 full length assumed", "test": "EMSA", "conditions": "25 °C, product formed during incubation", "Kd [nM]": "< 0.003"}
{"Sequence": "GGGAGACCGGCCUCGA (ssRNA; 5' GpppG cap, linear)", "target": "IFIT1 full length assumed (Homo sapiens, UniProt P09914)", "test": "BLI", "Kd [nM]": 5.64}
{"Sequence": "GAG (ssRNA; m7G 5'-5' triphosphate cap, N6-methyl A2)", "target": "Eif4e", "test": "fluorescence quenching titration", "Kd [nM]": "35.2 ± 0.8"}
{"Sequence": "CGATCATGGAGGCTAGCGCTCCCGTTACAG (dsDNA; blunt, 2'-fluoro-8-oxoG position 16)", "target": "OGG1 full length assumed", "test": "EMSA", "test system": "double-stranded DNA, one strand shown", "conditions": "25 °C, non-cleavable", "Kd [nM]": "2 ± 1"}
{"Sequence": "GUAUGCAUAGGC (ssRNA (Saccharomyces cerevisiae); hairpin when bound)", "target": "Fab BRG Fab", "test": "filter binding", "Kd [nM]": "12 ± 1"}
{"Sequence": "CACGACGCAAGGGACCACAGGTGGACCGCTAACTCCGGCCCAGGTCCAGCACGACACCGCAGAGGCA (ssDNA; indole-modified 5-ethynyl-dU at 22, 30, 34, 45)", "target": "CSPG4 30-2322 (Homo sapiens, UniProt Q6UVK1)", "test": "flow cytometry", "test system": "A375", "conditions": "apparent, intact cells, not purified, with: Mg2+ 5 mM", "Kd [nM]": 22}
{"Sequence": "GAGUUGAGUUGAGUUGAGUUGAGUUGAGUUGAGUUGAGUUGAGUUGAGUUGAGUU (ssRNA; single strand)", "target": "mtrB full length assumed T30V/K37A (Bacillus subtilis, UniProt P19466)", "test": "filter binding", "conditions": "with: L-tryptophan 1 mM", "Kd [nM]": "101 ± 25"}
{"Sequence": "GGGUUCUACGAUAAACGGUUAAUGACCAGCUUAUGGCUGGCAGUUCCCCGACGACGACGACGACGACGA / TCGTCGTCGTCGTCGTCGTCG (RNA/DNA hybrid; 2'-F pyrimidine RNA, 21-nt DNA anti-tail)", "target": "TFRC 1-760 (Homo sapiens, UniProt P02786)", "test": "flow cytometry", "conditions": "apparent, on cells, not purified", "Kd [nM]": "355 ± 83"}
{"Sequence": "ACCGCTATGTATTTCGTACATTACTGCCAGCCACCATGAATATTGTACGGTACCATAAATACTTGACCACCTGTAGTACATAAAAACCCAATCCACATCAAAACCCCCTCCCCATGCTTA (D-loop DNA; D-loop in supercoiled plasmid)", "target": "POLG2 fragment (Homo sapiens)", "test": "EMSA", "conditions": "least cold plasmid", "Kd [nM]": 1.5}
{"Sequence": "AUGCACAGGC (ssRNA)", "target": "Fab BRG Fab", "test": "filter binding", "Kd [nM]": "21 ± 4"}
{"Sequence": "CCUCUGCUUGCUGUUUAUGUUAAUGCGCUUGAACCCCACUGGCCC (ssRNA)", "target": "MBNL1 1-260 (Homo sapiens, UniProt Q9NR56)", "test": "EMSA", "Kd [nM]": 11}
{"Sequence": "TTTACTCATAGGGTTAGGGGCTGCTGGCCAGATACTCAGATGGTAGGGTTACTATGAGCAAA (ssDNA; 5' C6 spacer)", "target": "TFRC residues 1-760", "test": "flow cytometry", "test system": "PL45", "conditions": "not purified", "Kd [nM]": "< 15"}
